Assay results gathered from unrelated publications.
Protocols differ between the studies behind these lines. Several values in a cell are separate wells, animals, samples, runs or records.
Target: Muscle, skeletal receptor tyrosine-protein kinase (MUSK, Homo sapiens, UniProt O15146)

SMILES = C=CC(=O)N1CCCC(n2c(=O)c3ncccc3n(Cc3ccc(Oc4ccccc4)cc3)c2=O)C1 (stereo not drawn); assay = cell-free assay, competition with immobilised ligand; conditions = 1 µM; endpoint = remaining binding; value = 99%
SMILES = CCn1cc(C(=O)O)c(=O)c2c(N)c(F)c(NC3CCCCC3)cc21; assay = kinase activity; conditions = 0.1 µM, together with: ATP at Km; endpoint = inhibition; value = -6.4%
SMILES = NC(=O)C[C@H]1CCc2sc3ncnc(O[C@H]4CC[C@H](N5CCOCC5)CC4)c3c21; assay = enzyme activity, inhibitor; conditions = 10 µM; endpoint = inhibition; value = 14%
SMILES = CC(C)=CC1OC(C)(C)C2C=C3C(=O)C(Cl)=CC(O)C3C3C(O)C4OC4C(=O)C132 (stereo not drawn); assay = cell-free assay, competition with immobilised ligand; conditions = 10 µM; endpoint = remaining binding; value = 99%
SMILES = C=CC(=O)N1Cc2nc(-c3cc(-c4cc(Cl)cnc4Cl)c(F)cc3F)n(-c3ccncn3)c2C1; assay = cell-free assay, inhibitor; conditions = 1 µM; endpoint = inhibition; value = 11.2%
SMILES = O=C=[N][Ru-4]123([n]4c5ccc(O)cc5c5c6c(c7cc(F)c[n+]1c7c54)C(=O)NC6=O)[S+]1CC[S+]2CC[S+]3CC1 (stereo not drawn); assay = enzyme activity; conditions = 100 nM, human enzyme, together with: 10 µM ATP; scale = reference: untreated; endpoint = remaining activity; value = 108%
SMILES = Cc1cnc2nc1Nc1cccc(c1)COC/C=C/COCc1cc(ccc1OCCN1CCOCC1)N2; assay = binding; conditions = 0.1 µM; endpoint = remaining binding; value = 94%
SMILES = COc1c(OCCCN2CCOCC2)ccc2c1N=C(NC(=O)c1cnc(N)nc1)N1CCN=C21; assay = kinase activity, inhibitor; conditions = 1 µM; scale = reference: untreated control; endpoint = remaining activity; value = 94%
SMILES = COc1cc(Nc2nccc(-c3cnn4nc(OC)ccc34)n2)cc(C(F)(F)F)c1; assay = binding, competition with immobilised ligand; conditions = 1 µM; endpoint = remaining binding; value = 93%
SMILES = C=CC(=O)N1CCc2ccc(-n3c(=O)ccc4cnc5ccc(-c6cnn(C)c6)cc5c43)cc21; assay = KINOMEscan; conditions = 1 µM; scale = reference: DMSO control; endpoint = remaining binding; value = 100%
SMILES = C=CC(=O)Nc1cccc(-c2cnc3[nH]cc(C(=O)NC(C)(C)C)c3n2)c1; assay = kinase activity; conditions = 0.1 µM; endpoint = inhibition; value = 12% and 5%
SMILES = Nc1ncc2c(n1)-c1c([nH]c3ccc(C4=CCOCC4)cc13)CCC2; assay = binding, competition with immobilised ligand; conditions = 1 µM; endpoint = remaining binding; value = 100%
SMILES = Nc1ncc(-c2cc(-c3cnn(CC(F)(F)F)c3)ncc2F)nc1C(=O)NC1CNCC(F)C1 (stereo not drawn); assay = enzyme activity; conditions = 1 µM; scale = reference: DMSO control; endpoint = remaining activity; value = 86.4%
SMILES = Cc1cccc(O[C@H]2CCC[C@@H](C(C)CNCc3ccncc3)C2)c1 (relative stereo); assay = enzyme activity, inhibitor; conditions = 1 µM; endpoint = inhibition; value = 5%
SMILES = CNC(=O)C[C@H](Cc1ccc(C#N)cc1)NC(=O)c1cc(-c2ccc(CN[C@H](C)c3ccc(C)cc3)o2)ccc1Cl; assay = enzyme activity, inhibitor; conditions = 1 µM; endpoint = activity vs control; value = 87%
